Measurements pooled from the literature.
A part holds a random share of what one study measured. Changes are numbered by the printed parent chain.

Set 1
Target: TAR DNA-binding protein 43, full length, His tag (TARDBP, Homo sapiens, UniProt Q13148, residues 1-414)
Technique: RNA Bind-n-Seq
Molecule type: RNA
Medium: in vitro
Concentration: 20 nM
Notes: 6-mer, flanks averaged, single round
Together with: 150 mM LiCl
Relative to: input library
Direction: higher = stronger binding
Quantity: 6-mer enrichment (R)
UCCACA: 0.869
UUCGAC: 0.83
CCAAUG: 0.925
CGCUCG: 0.833
UUGAUG: 1.1
AUAACG: 0.853
UGAGGU: 1.18
UGUUAA: 1.07
UUAGUG: 1.23
AUUAGC: 0.906
AAAUGA: 0.855

Set 2
Target: PABPC1L2, full length, GST fusion (mouse, UniProt A0ABA7IW68)
Technique: RNAcompete
Molecule type: RNA
Medium: in vitro
Concentration: 20 nM
Notes: 7-mer, probes averaged, single round
Relative to: mean of 7-mers
Direction: higher = stronger binding
Quantity: 7-mer Z-score
Construct (chain): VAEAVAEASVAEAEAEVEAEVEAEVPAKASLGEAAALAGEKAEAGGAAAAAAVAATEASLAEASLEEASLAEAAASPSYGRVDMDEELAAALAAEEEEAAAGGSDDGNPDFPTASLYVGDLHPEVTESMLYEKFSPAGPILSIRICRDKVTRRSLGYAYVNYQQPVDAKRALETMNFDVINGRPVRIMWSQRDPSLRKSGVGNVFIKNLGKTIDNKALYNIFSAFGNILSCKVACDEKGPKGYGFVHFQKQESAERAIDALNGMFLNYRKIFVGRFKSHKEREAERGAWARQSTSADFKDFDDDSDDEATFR
GGGACUU: 0.311
AAACUAG: 0.655
AGAAAGG: 0.57
CUUUCUA: -0.34
AGCUUCG: -0.222
CCCGUAG: -0.26
CGAGACC: -0.0319
GGGUUUC: -0.342
GCAACGA: 0.153
CGUUUGA: -0.44
ACCCUGC: -0.345
GUACCCG: -0.293
UCUCACA: -0.36

Set 3
Target: CCNB3, cyclin fold, Cln2 fusion (human)
Technique: yeast growth competition, sequencing
Medium: yeast
Notes: weak parent motif
Relative to: not given
Direction: higher = stronger binding
Quantity: normalised enrichment score
Starting sequence: E2F1 docking peptide (human); PPVKRRLDLETDH; partner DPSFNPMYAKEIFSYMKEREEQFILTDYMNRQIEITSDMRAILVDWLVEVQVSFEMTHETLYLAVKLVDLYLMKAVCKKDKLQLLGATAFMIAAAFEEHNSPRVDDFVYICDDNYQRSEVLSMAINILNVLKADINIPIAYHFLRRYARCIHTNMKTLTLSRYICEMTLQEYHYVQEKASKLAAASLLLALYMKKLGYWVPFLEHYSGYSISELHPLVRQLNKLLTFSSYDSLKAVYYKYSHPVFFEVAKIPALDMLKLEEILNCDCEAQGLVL
R5A: 0.271
E10W: 0.256
P1T: 0.417
D12Y: 1.04
R5E: 0.267
D8Y: 0.0757
L7E: -0.148
P1C: 0.325
D8S: 0.27
T11W: 0.673
V3F: 0.298
R6D: -0.2
K4T: -0.359
R6E: 0.424

Set 4
Target: ABI1, truncated, D143A, DHFR fusion (Arabidopsis thaliana)
Technique: DHFR PCA, deep sequencing
Medium: yeast
Notes: methotrexate growth selection, single substitutions
Together with: (+)-ABA 0.032 µM
Relative to: wild-type fitted maximum
Direction: higher = stronger binding
Quantity: relative binding score
Starting sequence: PYL1, truncated, DHFR fusion (Arabidopsis thaliana); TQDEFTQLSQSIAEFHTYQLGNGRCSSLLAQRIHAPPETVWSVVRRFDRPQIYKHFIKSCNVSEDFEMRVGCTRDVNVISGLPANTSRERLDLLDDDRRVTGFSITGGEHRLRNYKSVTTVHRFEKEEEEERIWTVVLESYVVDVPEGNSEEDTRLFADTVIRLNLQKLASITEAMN
E147N: 4.92%
V142I: 20.4%
F103M: 0.613%
H34C: 35.7%
S42W: -4.35%
E67V: 37.4%
A30M: 34%
E152P: -9.69%
Q31P: -2.44%
G148K: -8.52%
W41G: -0.309%
N85K: 41.7%
E130L: 12.7%
S171A: 39.1%
D96I: 0.432%

Repeated from above (set 4):
F103M: 0.613%
N85K: 41.7%
E152P: -9.69%
S42W: -4.35%
A30M: 34%
E67V: 37.4%
S171A: 39.1%
G148K: -8.52%
E147N: 4.92%
